Experimental data from different studies.
Every numbered part comes from another study and shows a few of its results, in no order. Changes are numbered by the printed parent chain.
UniProt P51965, sequence (whole entry, looked up): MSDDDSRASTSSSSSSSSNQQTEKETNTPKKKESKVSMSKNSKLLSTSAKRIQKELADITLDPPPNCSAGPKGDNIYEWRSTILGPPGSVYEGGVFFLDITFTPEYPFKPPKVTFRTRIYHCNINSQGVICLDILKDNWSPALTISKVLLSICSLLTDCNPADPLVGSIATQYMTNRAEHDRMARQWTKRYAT
UniProt P49427, sequence (whole entry, looked up): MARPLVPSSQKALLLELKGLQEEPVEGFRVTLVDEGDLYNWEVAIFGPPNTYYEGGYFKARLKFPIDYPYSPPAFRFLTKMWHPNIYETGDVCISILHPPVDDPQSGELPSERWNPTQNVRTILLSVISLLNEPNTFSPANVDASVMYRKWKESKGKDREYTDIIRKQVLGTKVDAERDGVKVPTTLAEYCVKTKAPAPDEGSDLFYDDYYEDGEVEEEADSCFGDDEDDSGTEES
UniProt P60604, sequence (whole entry, looked up): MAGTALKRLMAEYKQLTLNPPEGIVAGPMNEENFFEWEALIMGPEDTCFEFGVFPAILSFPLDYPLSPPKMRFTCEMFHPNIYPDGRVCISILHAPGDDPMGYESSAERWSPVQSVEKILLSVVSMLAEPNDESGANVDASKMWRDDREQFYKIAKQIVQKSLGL
UniProt P61088, sequence (whole entry, looked up): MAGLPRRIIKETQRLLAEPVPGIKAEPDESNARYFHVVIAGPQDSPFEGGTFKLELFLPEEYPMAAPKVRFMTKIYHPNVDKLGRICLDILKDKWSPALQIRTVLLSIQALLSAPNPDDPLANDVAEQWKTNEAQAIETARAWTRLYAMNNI
UniProt Q13404, sequence (whole entry, looked up): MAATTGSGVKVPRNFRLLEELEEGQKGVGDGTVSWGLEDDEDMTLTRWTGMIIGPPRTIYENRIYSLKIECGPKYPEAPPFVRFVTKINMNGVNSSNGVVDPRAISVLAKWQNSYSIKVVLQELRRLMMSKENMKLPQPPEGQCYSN

Set 1 — method: yeast two-hybrid; medium: yeast; setting: mostly zero background; baseline: not given; reading: higher = stronger interaction
Molecule: QLRRLQEERTCKVCMDKEVSIVFIPCGHLVVCKDCAPSLRKCPICRSTIKGTVRTF (BIRC3 RING domain (UniProt Q13489))
target	lacZ reporter activity
CDC34 UBC core domain (UniProt P49427)	0
UBE2V1 UBC core domain (UniProt Q13404)	0
UBE2G2 UBC core domain (UniProt P60604)	16200
UBE2E1 UBC core domain (UniProt P51965)	0
UBE2N UBC core domain (UniProt P61088)	2620

Set 2 — method: RNA Bind-n-Seq; molecule type: RNA; medium: in vitro; tested at: 200 nM; setting: whole 134-nt RNA, ends assumed; together with: 150 mM LiCl; baseline: input library; reading: higher = stronger binding; all molecules: 7-deaza-guanosine replaces G
Target: Fragile X messenger ribonucleoprotein 1, C-terminal low-complexity region (Fmr1, Mus musculus, UniProt P35922)
Constant ends, left off below: GGGAGUUCUACAGUCCGACGAUC … UGGAAUUCUCGGGUGUCAAGG
Strand	log2 enrichment
UCAAGUCCUGUGCUACACAUCGUAUGUACCGAAUCGGUUUUUGGUGGAAAAAGGAAAGUAUUAUGUUACGCCGUUCGGAUCUGCACUUCC	-0.933
GCAGGAAGUAAAAACAAAUGGAAAUGCUUCGGAUAGUGGCAGGGGUGGGGGAAACUAAGGAAAGGGUGGGAUGGGAGUGGGUAAAGAGUU	1.29
UGUGCUACACAUCGUAUGUACCGAAUCGGGGAAAAAAAGGGGAAAAAAAGGGAAAAAAAGGGAAAGUAUUAUGUUACGCCGUUCGGAUCU	0.603
CCUGUGCUACACAUCGUAUGUACCGAAUCGGUUUUUUUGGGUUUUUUUGGGUUUUUUUGGAAAGUAUUAUGUUACGCCGUUCGGAUCUGC	0.149
CAAGUCCUGUGCUACACAUCGUAUGUACCGAAUCGGGGUUUGGGUUUGGGGUUUGGAAAGUAUUAUGUUACGCCGUUCGGAUCUGCACUU	-1.72
UCAAGUCCUGUGCUACACAUCGUAUGUACCGAAUCGGGGCCGGGGCCGGGGCCGGAAAGUAUUAUGUUACGCCGUUCGGAUCUGCACUUC	-0.152
UAACUUUAGAGGAGCAUCUGAUGGAUAUGGCAGUGGACGUGGAUUUGGGGAUGGCUAUAAUGGGUAUGGAGGAGGACCUGGAGGUGGCAA	0.251
GUCCUGUGCUACACAUCGUAUGUACCGAAUCGGGGAGGGGUUUUUGGGGUUUUUGGGGAAAGUAUUAUGUUACGCCGUUCGGAUCUGCAC	0.241

Set 3 — method: DHFR PCA, deep sequencing; medium: yeast; together with: (+)-ABA 200 µM; baseline: wild-type fitted maximum; reading: higher = stronger binding
Target: ABI1, truncated, D143A, DHFR fusion (Arabidopsis thaliana)
Setting: methotrexate growth selection, single substitutions
Parent: PYL1, truncated, DHFR fusion (Arabidopsis thaliana); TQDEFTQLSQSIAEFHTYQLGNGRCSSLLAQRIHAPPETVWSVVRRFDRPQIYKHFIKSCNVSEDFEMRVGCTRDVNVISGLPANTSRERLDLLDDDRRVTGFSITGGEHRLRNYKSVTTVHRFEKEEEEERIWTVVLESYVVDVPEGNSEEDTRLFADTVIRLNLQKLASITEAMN
Change	relative binding score [%]
D144G	47.2
H55T	103
I12K	79.9
F157K	1.64
N77P	9.36
L112C	58.8
A170P	3.7
R88T	102

Further values, each from its own experiment
Structure (SMILES)	species	medium	tested at	time	measurement	result
CCc1nc(CNc2ncnc3cc(Br)sc23)co1	mouse	microsomes or S9	2 µM	0.5 h	remaining compound	0.499%

Repeated from above (set 3):
Change	relative binding score [%]
H55T	103
I12K	79.9
F157K	1.64
N77P	9.36
